Assay results gathered from unrelated publications.
Each line is one published result; not all experiments were run side by side. “And” joins repeats or separate records; there may be more than shown. Numbers after ± are the reported error. In brackets after ≈: the same amount, converted by molar mass.
CDK2 with cyclin A: Cyclin-dependent kinase 2, with cyclin A (CDK2, Homo sapiens, UniProt P24941)

SMILES	tested on	test	system	setting	how to read	quantity	value
CC(C)[C@H](NC(=O)[C@H](Cc1ccc(O)cc1)NC(=O)[C@H](Cc1ccc(O)cc1)NC(=O)[C@@H]1CCCN1C(=O)[C@H](CCC(=O)O)NC(=O)[C@H](CCC(=O)O)NC(=O)[C@H](Cc1c[nH]c2ccccc12)NC(=O)[C@@H]1CCCN1C(=O)[C@@H](NC(=O)[C@H](CCC(N)=O)NC(=O)c1ccc2c(c1)C(=O)OC21c2ccc(O)cc2Oc2cc(O)ccc21)C(C)C)C(=O)N[C@H](C(=O)N[C@@H](CCCCN)C(=O)N[C@@H](CCCCN)C(=O)N[C@@H](CO)C(=O)N[C@@H](CO)C(=O)NCC(=O)NCC(N)=O)C(C)C	–	refers to: total compound	human, plasma	intravenous infusion, 40 mg, 2 h	–	plasma concentration	712 ng/mL
COc1cnc2cccc(N3CCc4c(cc(Cn5ccnc5C)cc4-c4cn(C)nc4C(F)(F)F)C3=O)c2c1	NCI-H1650	cell growth, inhibitor	–	120 h	–	EC50	1.33 µM
N#Cc1ccn2c(-c3ccncc3)c(-c3ccc(F)cc3)nc2c1	orf19.4518 kinase Candida albicans	MIB/MS competition binding	Candida albicans cell lysate	1 µM	baseline: DMSO, lower = stronger binding	log2 fold change	0.11
CC(=O)NC[C@H]1CN(c2ccc(N3CCOCC3)c(F)c2)C(=O)O1	Enterococcus faecium	agar dilution	vancomycin-susceptible, 64 isolates	–	–	MIC50	1 µg/mL (≈ 2.96 µM)
Cn1cc(-c2ccc(-c3cncc(Cl)c3N3CCC4(CCNC4=O)CC3)cc2)cn1	COLO 205	microarray, refers to: EDN1	–	concentration not given, 6 h, gene set Endothelin-1	baseline: untreated cells	fold change in expression	1.53
O=C(O)CC[C@H](NC(=O)N[C@@H](CCCCNC(=O)[C@H](Cc1ccc2ccccc2c1)NC(=O)CCCCCNC(=O)CN1CCN(CC(=O)O)CCN(CC(=O)O)CCN(CC(=O)O)CC1)C(=O)O)C(=O)O [gallium-68 labelled]	–	gamma counting	mouse, 22Rv1 xenograft, lung	intravenous, 3.7 MBq, 2 h	–	tissue uptake	4.37 ± 0.67 %ID/g
COC(=O)c1ccccc1Oc1nc(NC(C)C)nc(NC(C)C)n1	CDK2 with cyclin A	–	–	–	–	Kd	> 100 µM
c1ccc(-c2n[nH]cc2-c2ccnc3ccccc23)nc1	orf19.6492 kinase Candida albicans	MIB/MS competition binding	Candida albicans cell lysate	1 µM	baseline: DMSO, lower = stronger binding	log2 fold change	1.53
CC/C(=N\NC(=O)NCc1cccc(O)c1)c1ccc(O)c(C)c1O	SK-OV-3	ATP	2D monolayer culture	10 µM, 4 days	baseline: untreated	relative cell number	113%
O=C(Nc1ccc(S(=O)(=O)Nc2ncccn2)cc1)c1c(Cl)cccc1Cl	CDK2 with cyclin A	–	–	–	–	Kd	> 100 µM
[Cl][111In]([Cl])[Cl]	U2OS-53BP1 tumour model	111In radiolabel	host not given	18 h	–	cellular uptake	0.17 to 0.23 %ID/mg protein
c1coc(-c2n[nH]cc2-c2ccnc3ccccc23)c1	CKA2 (Candida albicans)	kinase binding, MIB/MS competition	Candida albicans lysate	1 µM	baseline: DMSO	log2 fold change	-0.28
N#Cc1ccc2c(-c3ccncc3)c(-c3ccc(F)cc3)nn2c1	orf19.6492 kinase Candida albicans	MIB/MS competition binding	Candida albicans cell lysate	1 µM	baseline: DMSO, lower = stronger binding	log2 fold change	-0.0685
CC(C)n1ncc2c(C(=O)NCC3(C)CNC3)cc(C3CC3)nc21	Enterovirus D68	time-of-addition	RD, US/MO/14-18947	3 µM, 1 to 1 h post infection	–	virus titre	400 PFU/mL and 200 PFU/mL
NC(=O)c1cnc2[nH]ccc2c1N[C@@H]1[C@@H]2CC3C[C@H]1C[C@@](O)(C3)C2	–	flow cytometry, refers to: CD4+ effector memory T cells	Japanese healthy subjects, peripheral blood	oral, 100 mg twice daily, day 4	–	change from baseline	0.38%
COc1cc(C(=O)NS(=O)(=O)c2ccccc2C)ccc1Cc1cn(C)c2ccc(NC(=O)OC3CCCC3)cc12	native VRAC	ion current, inhibitor, whole-cell patch clamp	wild-type HCT cells	1 µM, pH 6.0, extracellular pH	–	inhibition	17.9% and 1.82% and 30.3% and 4.83% and 16.4%
CC(C)C[C@H](NC(=O)C[C@H](O)[C@H](CC(C)C)NC(=O)[C@H](Cc1c[nH]cn1)NC(=O)CNC(=O)[C@@H](NC(=O)[C@H](C)NC(=O)[C@H](Cc1c[nH]c2ccccc12)NC(=O)[C@H](CCC(N)=O)NC(=O)[C@@H](Cc1ccccc1)NC(=O)COCCOCCNC(=O)CCC(C(=O)O)N1CCN(CC(=O)O)CCN(CC(=O)O)CCN(CC(=O)O)CC1)C(C)C)C(N)=O (stereo partly drawn) [lutetium-177 labelled]	–	–	BALB/c nu/nu mice, stomach	intravenous, 750 pmol, 1 h, with: PA 300 µg	–	tissue uptake	0.7 ± 0.2 %ID/g
O=C(N1CCc2ccccc21)n1ccnn1	Arabidopsis thaliana	–	wild type, seedlings	1 µM, continuous red light, with: 0.3 µM karrikin KAR2	–	hypocotyl length	13.2 mm
CN[C@H](CC(C)C)C(=O)N[C@H]1C(=O)N[C@@H](CC(N)=O)C(=O)N[C@H]2C(=O)N[C@H]3C(=O)N[C@H](C(=O)N[C@H](C(=O)O)c4cc(O)cc(O)c4-c4cc3ccc4O)[C@H](O)c3ccc(c(Cl)c3)Oc3cc2cc(c3O[C@@H]2O[C@H](CO)[C@@H](O)[C@H](O)[C@H]2O[C@H]2C[C@](C)(N)[C@H](O)[C@H](C)O2)Oc2ccc(cc2Cl)[C@H]1O	Enterococcus faecium	–	-9, compound-intermediate, mouse systemic infection	intravenous	survival	ED50	23.9 mg/kg
CC(C)NCC(O)c1ccc(O)c(O)c1 (stereo not drawn)	–	–	ventricular cardiomyocytes, C57BL/6 mouse	dose not given, 0.528 s	–	sarcomere length	1.49 µm
C[C@H](Oc1ccc(Br)cc1-c1ccon1)C(=O)O	–	response latency	human, tibialis anterior muscle	800 mg, 30 Hz+30 s	–	difference from placebo	0.069%

Some of these lines once more:
SMILES	tested on	test	system	setting	how to read	quantity	value
Cn1cc(-c2ccc(-c3cncc(Cl)c3N3CCC4(CCNC4=O)CC3)cc2)cn1	COLO 205	microarray, refers to: EDN1	–	concentration not given, 6 h, gene set Endothelin-1	baseline: untreated cells	fold change in expression	1.53
O=C(O)CC[C@H](NC(=O)N[C@@H](CCCCNC(=O)[C@H](Cc1ccc2ccccc2c1)NC(=O)CCCCCNC(=O)CN1CCN(CC(=O)O)CCN(CC(=O)O)CCN(CC(=O)O)CC1)C(=O)O)C(=O)O [gallium-68 labelled]	–	gamma counting	mouse, 22Rv1 xenograft, lung	intravenous, 3.7 MBq, 2 h	–	tissue uptake	4.37 ± 0.67 %ID/g
